Results from different studies.
Numbered parts are unrelated; each lists some results of a single study. “And” joins repeats or separate records; there may be more than shown.

Series 1 — mode: degrader; time: 24 h
Structure (SMILES): C[C@@H]1CN(c2ccc(-c3cc(C(=O)NCCOCCOCCOCCOCCNC(=O)Cn4cc(-c5[nH]cc(C(=O)N[C@@H](CC(N)=O)c6ccc(F)c(Cl)c6)c5-c5ccc(Cl)cc5F)cn4)ccc3F)cc2NC(=O)c2c[nH]c(=O)cc2C(F)(F)F)C[C@H](C)N1C
WDR5: WD repeat-containing protein 5 (WDR5, Homo sapiens, UniProt P61964)
WDR5/DCAF1: WDR5/DCAF1 (Homo sapiens, UniProt P61964+Q9Y4B6)
| target | method | measured | tested at | relative to | remaining protein level |
| --- | --- | --- | --- | --- | --- |
| WDR5 | Jess capillary immunoassay | WDR5 over vinculin | 4270 nM | DMSO | 79.8% and 93.6% and 122% |
| WDR5/DCAF1 | HiBiT luminescence | – | 34.2 nM | – | 97.6% and 88.4% and 87.5% |
| WDR5 | Jess capillary immunoassay | WDR5 over vinculin | 141 nM | DMSO | 113% and 101% and 82% |
| WDR5/DCAF1 | HiBiT luminescence | – | 88.1 nM | – | 94.9% and 89.9% and 83.4% |
| WDR5/DCAF1 | HiBiT luminescence | – | 585 nM | – | 64.3% and 69.5% and 70.7% |
| WDR5 | Jess capillary immunoassay | WDR5 over vinculin | 1821 nM | DMSO | 83.3% and 65.4% and 85.5% |
| WDR5 | Jess capillary immunoassay | WDR5 over vinculin | 4.69 nM | DMSO | 91.8% and 109% and 127% |
| WDR5/DCAF1 | HiBiT luminescence | – | 227 nM | – | 88.2% and 82.9% and 75.1% |

Series 2 — method: PI flow cytometry; time: 24 h
SMILES: CC(C)C[C@@H]1NC(=O)[C@@H](N(C)C(=O)[C@H](CC2CCC2)NC(=O)[C@@H]2C[C@@H](F)CN2C(=O)C2(C(F)(F)F)CC(F)(F)C2)CCCCNC(=O)C2(CC2)NC(=O)[C@H](Cc2cc(Cl)ccc2Cl)N(C)C1=O
| cell line | tested at | G1 phase cells |
| --- | --- | --- |
| NCI-H446 | 2000 nM | 9.37% and 11.1% and 8.26% |
| NCI-H1299 | 20 nM | 65.2% and 67.3% and 61.9% |
| HCC4006 | 200 nM | 56.7% and 49.5% and 44.8% |
| NCI-H82 | 200 nM | 46.6% and 42.2% and 40.5% |
| NCI-H446 | 20 nM | 38.5% and 41.3% and 46.4% |
| NCI-H1299 | 2000 nM | 50.4% and 61.2% |
| NCI-H82 | 20 nM | 43.2% and 50.9% and 41% |
| A549 | 200 nM | 61.5% and 57.7% and 61.3% |

Series 3 — effect on: cell-free assay; method: competition with immobilised ligand; tested at: 1 µM
SMILES: O=C1NC(c2ccccn2)Sc2ccccc21 (stereo not shown)
| target | remaining binding [%] |
| --- | --- |
| Serine/threonine-protein kinase Nek11 (NEK11, Homo sapiens, UniProt Q8NG66) | 95 |
| Serine/threonine-protein kinase NLK (NLK, Homo sapiens, UniProt Q9UBE8) | 100 |
| Mitogen-activated protein kinase kinase kinase 11 (MAP3K11, Homo sapiens, UniProt Q16584) | 94 |
| Mast/stem cell growth factor receptor Kit (KIT, Homo sapiens, UniProt P10721) | 89 |
| Serine/threonine-protein kinase BRSK1 (BRSK1, Homo sapiens, UniProt Q8TDC3) | 76 |
| Tyrosine-protein kinase ABL1, non-phosphorylated (ABL1, Homo sapiens, UniProt P00519, H396P) | 80 |
| Mast/stem cell growth factor receptor Kit (KIT, Homo sapiens, UniProt P10721, T670I/V559D) | 87 |
| Casein kinase I isoform alpha (CSNK1A1, Homo sapiens, UniProt P48729) | 72 |
| RAC-alpha serine/threonine-protein kinase (AKT1, Homo sapiens, UniProt P31749) | 89 |
| Mast/stem cell growth factor receptor Kit (KIT, Homo sapiens, UniProt P10721, V559D/V654A) | 87 |
| Mast/stem cell growth factor receptor Kit (KIT, Homo sapiens, UniProt P10721, L576P) | 89 |
| Citron Rho-interacting kinase (CIT, Homo sapiens, UniProt O14578) | 96 |
| SNF-related serine/threonine-protein kinase (SNRK, Homo sapiens, UniProt Q9NRH2) | 94 |
| Mitogen-activated protein kinase kinase kinase kinase 5 (MAP4K5, Homo sapiens, UniProt Q9Y4K4) | 100 |
| Homeodomain-interacting protein kinase 1 (HIPK1, Homo sapiens, UniProt Q86Z02) | 75 |
| Hepatocyte growth factor receptor (MET, Homo sapiens, UniProt P08581) | 68 |
| Epithelial discoidin domain-containing receptor 1 (DDR1, Homo sapiens, UniProt Q08345) | 86 |
| TRAF2 and NCK-interacting protein kinase (TNIK, Homo sapiens, UniProt Q9UKE5) | 100 |
| Serine/threonine-protein kinase DCLK3 (DCLK3, Homo sapiens, UniProt Q9C098) | 69 |
| Fibroblast growth factor receptor 2 (FGFR2, Homo sapiens, UniProt P21802) | 100 |
| Ribosomal protein S6 kinase alpha-2, C-terminal kinase domain (RPS6KA2, Homo sapiens, UniProt Q15349) | 93 |
| Serine/threonine-protein kinase 4 (STK4, Homo sapiens, UniProt Q13043) | 81 |
| Epidermal growth factor receptor (EGFR, Homo sapiens, UniProt P00533, L861Q) | 77 |
| Mast/stem cell growth factor receptor Kit (KIT, Homo sapiens, UniProt P10721, D816V) | 100 |
| Epidermal growth factor receptor (EGFR, Homo sapiens, UniProt P00533, del752-759) | 92 |

Series 4 — cell line: mouse MPNST tumor cells; method: high-content immunofluorescence imaging; measured: nuclear SOX9; tested at: 10 µM; time: 12 h; setting: mean of 2 replicates; relative to: DMSO control; reading: higher = more nuclear SOX9
| Compound | nuclear SOX9 intensity |
| --- | --- |
| CCc1nc(N)nc(N)c1-c1ccc(Cl)cc1 | 104 % of DMSO and 124 % of DMSO |
| Cc1cc([C@@H](C)Nc2ccccc2C(=O)O)c2nc(N3CCOCC3)cc(=O)n2c1 | 84.1 % of DMSO |
| CCOC(=O)CSc1nc2c(sc3ccccc32)c(=O)n1CCCN1CCCC1 | 156 % of DMSO |
| N[C@@H](CC(=O)Nc1ccc(Oc2cc(F)c(F)cc2Br)cc1)C(=O)O | 104 % of DMSO |
| O=[N+]([O-])c1cc2nc(O)c(O)nc2cc1[N+](=O)[O-] | 85.7 % of DMSO |
| C=C1c2c(Cl)ccc(O)c2C(O)=C2C(=O)[C@]3(O)C(O)=C(C(N)=O)C(=O)[C@@H](N(C)C)[C@@H]3[C@@H](O)[C@H]12.O=C(O)c1cc(S(=O)(=O)O)ccc1O | 106 % of DMSO |
| O=C1NCCCc2c1oc1ccc(O)cc21 | 78.7 % of DMSO |
| O=C(O)Cc1sc(-c2ccccc2)nc1-c1ccc(Cl)cc1 | 87.5 % of DMSO |
| Nc1nonc1C(=Nc1ccc(F)c(Cl)c1)NO | 103 % of DMSO |
| COC(c1ccccc1)(c1ccccc1)[C@H](Oc1nc(C)cc(C)n1)C(=O)O | 115 % of DMSO and 101 % of DMSO |
| N#Cc1c(NC(=O)c2cccc3ccccc23)sc2c1CCCC2 | 221 % of DMSO |
| Nc1nc(O)c2ncn(CCC(CO)CO)c2n1 | 93.2 % of DMSO |
| CN1C(C(=O)Nc2ccccn2)=C(O)c2sccc2S1(=O)=O | 101 % of DMSO |
| Cc1ccc(S(=O)(=O)NC(=O)NN2CC3CCCC3C2)cc1 (stereo not shown) | 93.6 % of DMSO |

A few entries again (series 3):
| target | remaining binding [%] |
| --- | --- |
| Homeodomain-interacting protein kinase 1 (HIPK1, Homo sapiens, UniProt Q86Z02) | 75 |
| Hepatocyte growth factor receptor (MET, Homo sapiens, UniProt P08581) | 68 |
| Epithelial discoidin domain-containing receptor 1 (DDR1, Homo sapiens, UniProt Q08345) | 86 |
| TRAF2 and NCK-interacting protein kinase (TNIK, Homo sapiens, UniProt Q9UKE5) | 100 |
